Measured values from different studies.
Compare with care: the assays were run in different laboratories. Numbers after ± are the reported error.

Molecule	test	system	setting	endpoint	result
CN[C@@](C)(C[18F])C(=O)O		SCID mouse SK-OV-3 xenograft, spleen	30 min, post injection	tissue uptake	13 ± 2.5 %ID/g
melittin	isothermal titration calorimetry	POPC/POPG LUVs 75:25%	100 µM, pH 7.0, 40 °C	partitioning enthalpy	-10.4 kcal/mol
COc1cccc2c1C(=O)c1c(O)c3c(c(O)c1C2=O)C[C@@](O)(C(=O)CO)C[C@@H]3O[C@H]1C[C@H](NC(=O)[C@@H]2CCCN2C(=O)CNC(=O)[C@H](CC(C)C)NC(=O)[C@H](C)NC(=O)CP(=O)(O)O)[C@H](O)[C@H](C)O1		mouse, E0771 tumour-bearing, tumor	intravenous, 92 µmol/kg	terminal half-life	2.6 h
CSCC[C@H](NC(=O)[C@H](CC(C)C)NC(=O)[C@H](Cc1cnc[nH]1)NC(=O)CNC(=O)[C@@H](NC(=O)[C@H](C)NC(=O)[C@H](Cc1c[nH]c2ccccc12)NC(=O)[C@H](CCC(N)=O)NC(=O)c1ccc(NC(=O)CN2CCN(CC(=O)O)CCN(CC(=O)O)CCN(CC(=O)O)CC2)cc1)C(C)C)C(N)=O		CF-1 mouse, urine and bladder	intravenous, 185 kBq, 1 h	excretion	68.4 ± 2.15%
N=C(N)NCCC[C@@H]1NC(=O)[C@H](CCCCNC(=O)[C@H](CC(=O)O)NC(=O)[C@H](CC(=O)O)NC(=O)[C@H](CC(=O)O)NC(=O)CC[C@H](NC(=O)CCOCCOCCOCCOCCNC(=O)c2ccc(NN)nc2)C(=O)N[C@@H](CC(=O)O)C(=O)N[C@@H](CC(=O)O)C(=O)N[C@@H](CC(=O)O)C(=O)NCCCC[C@@H]2NC(=O)[C@@H](Cc3ccccc3)NC(=O)[C@H](CC(=O)O)NC(=O)CNC(=O)[C@H](CCCNC(=N)N)NC2=O)NC(=O)[C@@H](Cc2ccccc2)NC(=O)[C@H](CC(=O)O)NC(=O)CNC1=O [technetium-99m labelled]	γ-counting	female athymic nude mice, U-87 MG xenograft, brain	intravenous, 1 h	tissue uptake	0.13 ± 0.02 %ID/g
CCCCCCCCCCCCCCCCCCSC1CC(=O)N(CCC(=O)NCCOCCOCCOCCOCCOCCOCCOCCOCCOCCOCCOCCOCCOCCOCCOCCOCCOCCOCCOCCOCCOCCOCCOCCOCCC(=O)NC(COCCC(=O)NCCOCCOCCOCCOCCC(=O)NCCCC[C@@H](NC(=O)CNC(=O)[C@@H](CC(C)C)NC(=O)[C@@H](CCC(=O)O)NC(=O)[C@H]2CSSC[C@@H](NC(=O)[C@H]3CCCN3C(=O)[C@@H](Cc3c[nH]cn3)NC(C)=O)C(=O)N[C@H](CC(=O)O)C(=O)N[C@H](Cc3ccc(O)cc3)C(=O)N3CCC[C@@H]3C(=O)N[C@H](CCC(=O)O)C(=O)N[C@H](Cc3c[nH]c4ccccc34)C(=O)N[C@H](CCC(N)=O)C(=O)N[C@H](Cc3c[nH]c4ccccc34)C(=O)N[C@H](CC(C)C)C(=O)N2)C(N)=O)(COCCC(=O)NCCOCCOCCOCCOCCC(=O)NCCCC[C@@H](NC(=O)CNC(=O)[C@@H](CC(C)C)NC(=O)[C@@H](CCC(=O)O)NC(=O)[C@H]2CSSC[C@@H](NC(=O)[C@H]3CCCN3C(=O)[C@@H](Cc3c[nH]cn3)NC(C)=O)C(=O)N[C@H](CC(=O)O)C(=O)N[C@H](Cc3ccc(O)cc3)C(=O)N3CCC[C@@H]3C(=O)N[C@H](CCC(=O)O)C(=O)N[C@H](Cc3c[nH]c4ccccc34)C(=O)N[C@H](CCC(N)=O)C(=O)N[C@H](Cc3c[nH]c4ccccc34)C(=O)N[C@H](CC(C)C)C(=O)N2)C(N)=O)COCCC(=O)NCCOCCOCCOCCOCCC(=O)NCCCC[C@@H](NC(=O)CNC(=O)[C@@H](CC(C)C)NC(=O)[C@@H](CCC(=O)O)NC(=O)[C@H]2CSSC[C@@H](NC(=O)[C@H]3CCCN3C(=O)[C@@H](Cc3c[nH]cn3)NC(C)=O)C(=O)N[C@H](CC(=O)O)C(=O)N[C@H](Cc3ccc(O)cc3)C(=O)N3CCC[C@@H]3C(=O)N[C@H](CCC(=O)O)C(=O)N[C@H](Cc3c[nH]c4ccccc34)C(=O)N[C@H](CCC(N)=O)C(=O)N[C@H](Cc3c[nH]c4ccccc34)C(=O)N[C@H](CC(C)C)C(=O)N2)C(N)=O)C1=O (stereo partly shown)		Sprague Dawley rat, plasma	intravenous, 1.0 mg/kg, median, added: Palm-PIE12-trimer 1.2 mg/kg	AUC(0-inf)	0.76 µM·h
CCN1C(=CC=CC=CC2=[N+](CCCCCC(=O)NCCCC[C@H](NC(=O)CN3CCN(CC(=O)O)CCN(CC(=O)O)CCN(CC(=O)O)CC3)C(=O)NCC(=O)NCC(=O)N[C@@H](Cc3ccc(O)cc3)C(=O)NCC(=O)N[C@H]3CSSC[C@@H]4NC(=O)CNC(=O)[C@H](C)NC(=O)[C@H](CC(C)C)NC(=O)[C@@H]5CSSC[C@@H](C(=O)NCC(N)=O)NC(=O)[C@H](Cc6ccccc6)NC(=O)CNC(=O)[C@H](CC(N)=O)NC(=O)[C@@H]6CCCN6C(=O)CNC(=O)[C@H](CSSC[C@H](NC(=O)[C@H](CO)NC(=O)[C@H]([C@@H](C)O)NC(=O)[C@@H]6CCCN6C(=O)[C@H](C)NC(=O)[C@H](Cc6c[nH]c7ccccc67)NC(=O)[C@H](CC(=O)O)NC(=O)CNC(=O)[C@H](CCCNC(=N)N)NC(=O)CNC(=O)[C@H](CCC(N)=O)NC(=O)[C@@H]6CCCN6C3=O)C(=O)N[C@@H](CO)C(=O)N[C@@H](CCC(N)=O)C(=O)N[C@@H](CC(=O)O)C(=O)N[C@@H](CO)C(=O)N[C@@H](CC(=O)O)C(=O)N5)NC(=O)[C@H](C(C)C)NC4=O)c3ccc4c(S(=O)(=O)[O-])cc(S(=O)(=O)O)cc4c3C2(C)C)C(C)(C)c2c1ccc1c(S(=O)(=O)O)cc(S(=O)(=O)O)cc21 (single isomer, unassigned) [copper-64 labelled]		nude mouse, kidney	intravenous, 100 µCi, 24 h	tissue uptake	~30 %ID/g
COc1cccc2c1C(=O)c1c(O)c3c(c(O)c1C2=O)C[C@@](O)(C(=O)CO)C[C@@H]3O[C@H]1C[C@H](NC(=O)[C@H](CC(C)C)NC(=O)[C@H](C)NC(=O)[C@H](CC(C)C)NC(=O)CCNC(=O)CCC(=O)O)[C@H](O)[C@H](C)O1		mouse, E0771 tumour-bearing, kidney	intravenous, 92 µmol/kg	Cmax	811 µM
CC(C)C[C@@H]1NC(=O)[C@@H]2CSSC[C@@H](C(=O)NCC(N)=O)NC(=O)[C@H](Cc3ccccc3)NC(=O)CNC(=O)[C@H](CC(N)=O)NC(=O)[C@@H]3CCCN3C(=O)CNC(=O)[C@@H]3CSSC[C@H](NC(=O)[C@H]([C@@H](C)O)NC(=O)[C@H](CC(C)C)NC(=O)[C@@H]4CCCN4C(=O)[C@@H]4CCCN4C(=O)[C@H](CC(N)=O)NC(=O)[C@H](CC(=O)O)NC(=O)CNC(=O)[C@H](CCCNC(=N)N)NC(=O)[C@@H]4CCCN4C(=O)[C@H](CCCNC(=N)N)NC(=O)[C@@H]4CCCN4C(=O)[C@@H](NC(=O)CNC(=O)CN4CCN(CC(=O)O)CCN(CC(=O)O)CCN(CC(=O)O)CC4)CSSC[C@H](NC(=O)CNC(=O)[C@H](C)NC1=O)C(=O)N[C@@H](C(C)C)C(=O)N3)C(=O)N[C@@H](CO)C(=O)N[C@@H](CCC(N)=O)C(=O)N[C@@H](CC(=O)O)C(=O)N[C@@H](CO)C(=O)N[C@@H](CC(=O)O)C(=O)N2 [copper-64 labelled]	PET/CT	CCSP-rtTA TetO-MYC TetO-KrasG12D mouse, lung tumour	intravenous, 60 min	tissue uptake	1.76 %ID/g
N=C(N)NCCC[C@@H]1NC(=O)[C@H](CCCCNC(=O)CNC(=O)CNC(=O)CNC(=O)CC[C@H](NC(=O)CCOCCOCCOCCOCCNC(=O)c2ccc(NN)nc2)C(=O)NCC(=O)NCC(=O)NCC(=O)NCCCC[C@@H]2NC(=O)[C@@H](Cc3ccccc3)NC(=O)[C@H](CC(=O)O)NC(=O)CNC(=O)[C@H](CCCNC(=N)N)NC2=O)NC(=O)[C@@H](Cc2ccccc2)NC(=O)[C@H](CC(=O)O)NC(=O)CNC1=O [technetium-99m labelled]	γ-counting	female athymic nude mice, U-87 MG xenograft, blood	intravenous, 0.5 h	tissue uptake	0.65 ± 0.15 %ID/g
